Measured values gathered from unrelated publications.
Lines come from different studies, so protocols differ. Numbers after ± are the reported error. Values after ≈ are worked out from the molar mass of the structure shown.

`CC1=C[C@@H](C)[C@H]2[C@@H]3C(=O)C(Cl)(Cl)C(=O)[C@H](C)C(=O)O[C@@H](C)/C=C/C=C\[C@@H](C)[C@@H]3C=C[C@@H]2C1`: “maximum tolerated concentration” 1 µg/mL (Staphylococcus aureus; Newman).
Under response capacity, `CCN(CCCCOc1ccc(CCC(=O)N2CCC(Cc3ccccc3)CC2)cc1OC)Cc1ccccc1` is recorded as “increased” (Danio rerio; BuChE-overexpressing; concentration not given, light to dark transition).
The survival time of `OC(CN1CCC2(CC1)CC(O)c1ccc3ccccc3c1O2)c1ccc(F)c(F)c1` (stereo not shown) is reported as 12 days (Plasmodium berghei; ANKA, BALB/c mice; oral, dose not given).
`CC[C@@H](C)[C@@H](NC(=O)[C@@H](C)NC(=O)[C@@H](CCCCN)NC(=O)[C@@H](CC(C)C)NC(=O)[C@@H](C)NC(=O)[C@H](NC(=O)[C@@H](Cc1c[nH]cn1)NC(=O)[C@@H](CC(C)C)NC(=O)[C@H](NC(=O)[C@H](NC(=O)[C@@H](CCCCN)NC(=O)[C@@H](CCCCN)NC(=O)[C@@H](C)NC(=O)[C@@H](CO)NC(=O)[C@@H](CCCCN)NC(=O)[C@@H](Cc1ccccc1)NC(=O)[C@H](NC(=O)[C@@H](CCCCN)NC(=O)[C@@H](CC(C)C)NC(=O)[C@@H](Cc1ccccc1)NC(=O)[C@@H](CO)NC(=O)[C@@H](CCCCN)NC(=O)[C@@H](Cc1c[nH]c2ccccc12)NC(=O)[C@@H](CCCCN)NC(C)=O)[C@H](C)O)[C@H](C)O)C(C)C)[C@H](C)O)C(=O)N[C@H](CO)C(=O)N[C@H](CO)C(N)=O` has an MIC90 of 25 µg/mL (≈ 8.36 µM) (Rhizopus oryzae; AZN 8892; 48 h, 30 °C).
`CC[C@H](C)[C@H](NC(=O)[C@H](CCCCN)NC(=O)[C@H](CCCCN)NC(=O)[C@H](CC(C)C)NC(=O)[C@H](CCCCN)NC(=O)[C@H](CCC(=O)O)NC(=O)[C@H](CCCCN)NC(=O)[C@@H](NC(=O)[C@H](CCCCN)NC(=O)[C@H](CC(N)=O)NC(=O)[C@H](CCCNC(=N)N)NC(=O)[C@H](Cc1ccccc1)NC(=O)[C@H](CCCCN)NC(=O)[C@H](CCCNC(=N)N)NC(=O)[C@H](CC(C)C)NC(=O)[C@H](CCCNC(=N)N)NC(=O)[C@H](CCCCN)NC(=O)[C@H](CCCNC(=N)N)NC(=O)[C@H](CC(C)C)NC(=O)CN)[C@@H](C)CC)C(=O)NCC(=O)N[C@@H](CCC(N)=O)C(=O)N[C@@H](CCCCN)C(=O)N[C@H](C(=O)N[C@@H](CCC(N)=O)C(=O)NCC(=O)N[C@@H](Cc1ccccc1)C(=O)N[C@H](C(=O)N1CCC[C@H]1C(=O)N[C@@H](CCCCN)C(=O)N[C@@H](CC(C)C)C(=O)N[C@@H](C)C(=O)N1CCC[C@H]1C(=O)N[C@@H](CCCNC(=N)N)C(=O)N[C@H](C(=O)N[C@@H](CC(=O)O)C(=O)N[C@@H](Cc1ccc(O)cc1)C(=O)O)[C@@H](C)O)C(C)C)[C@@H](C)CC` has a lethal concentration of 1.1 µM (Bacillus subtilis; inhibition zone; CGMCC 1.243).
The MIC of `C[N+]1=C2C(c3ccccc3)=[N+]([O-])c3ccccc3N2CCC1` is reported as 4 µg/mL (Bacteroides ovatus; ATCC 84834).
`CCCCc1ccc(-c2nc(C)c(C(C)=NNC(=N)N)s2)cc1` — result for “time to complete kill”: at most 4 h (Staphylococcus aureus; USA300 MRSA; 3 × MIC, 37 °C).
Under “inhibition zone diameter”, `COC(=O)c1cnc(-c2cnccn2)cc1C(=O)OC.COC(=O)c1cnc(-c2cnccn2)cc1C(=O)OC.F[P-](F)(F)(F)(F)F.[Ag+]` is recorded as 5 mm (Chromobacterium violaceum; violacein production (quorum sensing); CV026; 100 µg/disc).
With `CC[C@H](C)[C@H](NC(=O)[C@H](CCCCN)NC(=O)[C@H](CCCCN)NC(=O)[C@H](CC(C)C)NC(=O)[C@H](CCCCN)NC(=O)[C@H](CCC(=O)O)NC(=O)[C@H](CCCCN)NC(=O)[C@@H](NC(=O)[C@H](CCCCN)NC(=O)[C@H](CC(N)=O)NC(=O)[C@H](CCCNC(=N)N)NC(=O)[C@H](Cc1ccccc1)NC(=O)[C@H](CCCCN)NC(=O)[C@H](CCCNC(=N)N)NC(=O)[C@H](CC(C)C)NC(=O)[C@H](CCCNC(=N)N)NC(=O)[C@H](CCCCN)NC(=O)[C@H](CCCNC(=N)N)NC(=O)[C@H](CC(C)C)NC(=O)[C@@H](N)CC(C)C)[C@@H](C)CC)C(=O)NCC(=O)N[C@@H](CCC(N)=O)C(=O)N[C@@H](CCCCN)C(=O)N[C@H](C(=O)N[C@@H](CCC(N)=O)C(=O)NCC(=O)N[C@@H](Cc1ccccc1)C(=O)N[C@H](C(=O)N1CCC[C@H]1C(=O)N[C@@H](CCCCN)C(=O)N[C@@H](CC(C)C)C(=O)N[C@H](C(=O)N1CCC[C@H]1C(=O)N[C@@H](CCCNC(=N)N)C(=O)N[C@H](C(=O)N[C@@H](CCC(=O)O)C(=O)N[C@@H](CO)C(=O)O)[C@@H](C)O)C(C)C)C(C)C)[C@@H](C)CC` the lethal concentration was 1.8 µM (Bacillus subtilis; inhibition zone; CGMCC 1.243).
For `CN[C@@H]1[C@H](O)[C@H](NC)[C@H]2O[C@]3(O)[C@H](O[C@@H]2[C@H]1O)O[C@H](C)C[C@]3(O)CNCc1ccc(F)cc1`, “inhibition zone diameter” read 0 mm (Haemophilus influenzae; ATCC 49247; 40 µg per disc).
For `CC[C@H](C)[C@H](NC(=O)[C@H](CO)NC(=O)[C@H](CO)NC(=O)[C@H](Cc1ccccc1)NC(=O)CN)C(=O)N[C@@H](Cc1ccccc1)C(=O)N[C@@H](CCCNC(=N)N)C(N)=O`, the MBC was over 128 µM (Escherichia coli; ATCC 8739; added: 8 mM ZnCl2).
For `CC[C@H](C)[C@H](NC(=O)[C@H](CCCCN)NC(=O)[C@H](CCCCN)NC(=O)[C@H](CC(C)C)NC(=O)[C@H](CCCCN)NC(=O)[C@H](CCC(=O)O)NC(=O)[C@H](CCCCN)NC(=O)[C@@H](NC(=O)[C@H](CCCCN)NC(=O)[C@H](CC(N)=O)NC(=O)[C@H](CCCNC(=N)N)NC(=O)[C@H](Cc1ccccc1)NC(=O)[C@H](CCCCN)NC(=O)[C@H](CCCNC(=N)N)NC(=O)[C@H](CC(C)C)NC(=O)[C@H](CCCNC(=N)N)NC(=O)[C@H](CCCCN)NC(=O)[C@H](CCCNC(=N)N)NC(=O)[C@H](CC(C)C)NC(=O)[C@@H](N)CCCNC(=N)N)[C@@H](C)CC)C(=O)NCC(=O)N[C@@H](CCC(N)=O)C(=O)N[C@@H](CCCCN)C(=O)N[C@H](C(=O)N[C@@H](CCC(N)=O)C(=O)NCC(=O)N[C@@H](Cc1ccccc1)C(=O)N[C@H](C(=O)N1CCC[C@H]1C(=O)N[C@@H](CCCCN)C(=O)N[C@@H](CC(C)C)C(=O)N[C@@H](CCC(N)=O)C(=O)N1CCC[C@H]1C(=O)N[C@@H](CO)C(=O)N[C@@H](CCCCN)C(=O)N[C@@H](CCC(N)=O)C(=O)N[C@@H](CO)C(=O)O)C(C)C)[C@@H](C)CC`, the lethal concentration was 1.92 µM (Bacillus megaterium; inhibition zone; CGMCC 1.046).
For `COc1ccc(N2C(=O)C=CC2=O)cc1`, the mRNA level was 0.36 fold (Candida albicans; qRT-PCR, measured: TEC1; 1 µg/mL, 12 h; reference: untreated).
`Cc1ccc(COP(=O)(O)Oc2c3c(c(OP(=O)(O)OCc4ccc(C)cc4)c4c2C2CC4c4cc5c(cc42)C2CC5c4ccccc42)C2CC3c3cc4c(cc32)C2CC4c3ccccc32)cc1` gave an IC50 of 2100 nM (measles virus; viral infection, flow cytometry; A549, vaccine strain GFP; 2 days, virus pre-incubated 30 min 37 °C).
`N=C(N)NCCC[C@H](NC(=O)[C@H](Cc1c[nH]c2ccccc12)NC(=O)[C@H](CCCNC(=N)N)NC(=O)[C@H](CCCNC(=N)N)NC(=O)[C@@H]1CCCN1C(=O)[C@H](CCCCN)NC(=O)[C@@H](N)CCCNC(=N)N)C(=O)N[C@@H](Cc1c[nH]c2ccccc12)C(=O)N[C@@H](Cc1c[nH]c2ccccc12)C(=O)N1CCC[C@H]1C(=O)N[C@@H](CCCCN)C(=O)N[C@@H](CCCNC(=N)N)C(=O)N1CCC[C@H]1C(=O)O`: “serum cytokine level” “decreased” (Staphylococcus aureus; ELISA, measured: IL-1β; 09057, BALB/c mice, sepsis model; intraperitoneal, 20 mg/kg, 12 h; reference: saline).
For `CN(C)CCNC(=O)/C=C/[C@H](Cc1ccccc1)Nc1ccnc2cc(Cl)ccc12`, the body weight was 27.7 ± 1.97 g (Plasmodium berghei; NAT atovaquone-resistant, ICR mouse infected; 10 mg/kg, 0 days post infection before treatment).
`CC(C)C(C(=O)N[C@@H](Cc1ccccc1)[C@H](O)CN1CCN(Cc2ccc(Br)cc2)CC1)N1C(=O)c2ccccc2C1=O` (stereo partly shown): “mean survival time” about 16.5 days (Plasmodium berghei; mice, liver-stage infection; 50 mg/kg, 240 h).
With `CC[C@H](C)[C@H](NC(=O)[C@H](CCCCN)NC(=O)[C@H](CCCCN)NC(=O)[C@H](CC(C)C)NC(=O)[C@H](CCCCN)NC(=O)[C@H](CCC(=O)O)NC(=O)[C@H](CCCCN)NC(=O)[C@@H](NC(=O)[C@H](CCCCN)NC(=O)[C@H](CC(N)=O)NC(=O)[C@H](CCCNC(=N)N)NC(=O)[C@H](Cc1ccccc1)NC(=O)[C@H](CCCCN)NC(=O)[C@H](CCCNC(=N)N)NC(=O)[C@H](CC(C)C)NC(=O)[C@H](CCCNC(=N)N)NC(=O)[C@H](CCCCN)NC(=O)[C@H](CCCNC(=N)N)NC(=O)[C@@H](N)CC(C)C)[C@@H](C)CC)C(=O)NCC(=O)N[C@@H](CCC(N)=O)C(=O)N[C@@H](CCCCN)C(=O)N[C@H](C(=O)N[C@@H](CCC(N)=O)C(=O)NCC(=O)N[C@@H](Cc1ccccc1)C(=O)N[C@H](C(=O)N1CCC[C@H]1C(=O)N[C@@H](CCCCN)C(=O)N[C@@H](CC(C)C)C(=O)O)C(C)C)[C@@H](C)CC` the lethal concentration was 3.54 µM (Salmonella; inhibition zone; ZQ.17N; LB agar, overnight).
With `C[C@@](O)(C(F)F)[C@H](NC(=O)c1ccc(C#CC#CC2CC2)cc1)C(=O)NO` the MIC50 was 0.016 µg/mL (≈ 0.0425 µM) (Neisseria gonorrhoeae; agar dilution; susceptible and MDR).

Repeated from above:
Under “inhibition zone diameter”, `COC(=O)c1cnc(-c2cnccn2)cc1C(=O)OC.COC(=O)c1cnc(-c2cnccn2)cc1C(=O)OC.F[P-](F)(F)(F)(F)F.[Ag+]` is recorded as 5 mm (Chromobacterium violaceum; violacein production (quorum sensing); CV026; 100 µg/disc).
With `CC[C@H](C)[C@H](NC(=O)[C@H](CCCCN)NC(=O)[C@H](CCCCN)NC(=O)[C@H](CC(C)C)NC(=O)[C@H](CCCCN)NC(=O)[C@H](CCC(=O)O)NC(=O)[C@H](CCCCN)NC(=O)[C@@H](NC(=O)[C@H](CCCCN)NC(=O)[C@H](CC(N)=O)NC(=O)[C@H](CCCNC(=N)N)NC(=O)[C@H](Cc1ccccc1)NC(=O)[C@H](CCCCN)NC(=O)[C@H](CCCNC(=N)N)NC(=O)[C@H](CC(C)C)NC(=O)[C@H](CCCNC(=N)N)NC(=O)[C@H](CCCCN)NC(=O)[C@H](CCCNC(=N)N)NC(=O)[C@@H](N)CC(C)C)[C@@H](C)CC)C(=O)NCC(=O)N[C@@H](CCC(N)=O)C(=O)N[C@@H](CCCCN)C(=O)N[C@H](C(=O)N[C@@H](CCC(N)=O)C(=O)NCC(=O)N[C@@H](Cc1ccccc1)C(=O)N[C@H](C(=O)N1CCC[C@H]1C(=O)N[C@@H](CCCCN)C(=O)N[C@@H](CC(C)C)C(=O)O)C(C)C)[C@@H](C)CC` the lethal concentration was 3.54 µM (Salmonella; inhibition zone; ZQ.17N; LB agar, overnight).
`Cc1ccc(COP(=O)(O)Oc2c3c(c(OP(=O)(O)OCc4ccc(C)cc4)c4c2C2CC4c4cc5c(cc42)C2CC5c4ccccc42)C2CC3c3cc4c(cc32)C2CC4c3ccccc32)cc1` gave an IC50 of 2100 nM (measles virus; viral infection, flow cytometry; A549, vaccine strain GFP; 2 days, virus pre-incubated 30 min 37 °C).
